Measured values collected from several papers.
Each numbered part is a random draw from the data of one study; scales do not carry over between parts. “And” joins repeats or separate records; there may be more than shown.
Chain of UniProt P49336 (whole entry, looked up): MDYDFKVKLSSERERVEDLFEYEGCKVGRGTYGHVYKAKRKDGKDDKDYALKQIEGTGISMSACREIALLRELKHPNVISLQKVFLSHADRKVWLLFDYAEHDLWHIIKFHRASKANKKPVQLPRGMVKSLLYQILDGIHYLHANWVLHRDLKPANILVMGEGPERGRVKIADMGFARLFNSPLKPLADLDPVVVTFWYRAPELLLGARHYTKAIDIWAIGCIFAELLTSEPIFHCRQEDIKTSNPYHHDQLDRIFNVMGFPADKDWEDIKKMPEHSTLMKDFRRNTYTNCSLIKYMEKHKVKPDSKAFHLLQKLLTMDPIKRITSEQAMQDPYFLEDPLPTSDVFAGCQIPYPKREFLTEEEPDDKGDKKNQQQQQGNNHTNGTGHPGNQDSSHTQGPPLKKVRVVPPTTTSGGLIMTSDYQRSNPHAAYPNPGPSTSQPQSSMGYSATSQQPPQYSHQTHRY
Chain of UniProt Q15418 (whole entry, looked up): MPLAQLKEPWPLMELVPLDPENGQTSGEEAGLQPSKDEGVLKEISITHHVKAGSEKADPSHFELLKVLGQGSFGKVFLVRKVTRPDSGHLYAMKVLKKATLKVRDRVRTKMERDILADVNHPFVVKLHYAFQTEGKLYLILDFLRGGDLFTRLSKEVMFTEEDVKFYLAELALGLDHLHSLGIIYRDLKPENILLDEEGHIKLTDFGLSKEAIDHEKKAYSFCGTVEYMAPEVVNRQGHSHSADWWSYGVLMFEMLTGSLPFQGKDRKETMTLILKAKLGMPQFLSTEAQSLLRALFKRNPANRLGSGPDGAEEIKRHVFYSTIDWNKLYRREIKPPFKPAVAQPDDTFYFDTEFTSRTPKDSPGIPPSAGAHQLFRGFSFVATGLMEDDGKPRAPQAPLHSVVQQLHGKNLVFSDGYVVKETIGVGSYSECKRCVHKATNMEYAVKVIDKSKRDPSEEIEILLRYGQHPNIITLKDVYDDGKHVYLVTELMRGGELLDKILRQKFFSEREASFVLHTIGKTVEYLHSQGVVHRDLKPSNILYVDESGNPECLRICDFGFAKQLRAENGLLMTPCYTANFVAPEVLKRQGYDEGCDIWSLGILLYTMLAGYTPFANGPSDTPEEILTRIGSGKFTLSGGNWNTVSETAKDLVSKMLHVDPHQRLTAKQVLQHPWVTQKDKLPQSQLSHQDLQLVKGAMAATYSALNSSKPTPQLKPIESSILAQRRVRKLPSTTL

Sample 1 — organism: Leishmania donovani; effect on: parasite killing; strain: DD8
SMILES: c1ccc(Oc2ccc(Nc3c4c(nc5ccccc35)CCC4)cc2)cc1
For intracellular amastigotes; 40 µM, 48 h: inhibition read 100%.
For intracellular amastigotes; 80 µM, 48 h: inhibition read 100%.
intracellular amastigotes; 8 µM, 96 h — inhibition: 100%.
It gave 100% for inhibition (intracellular amastigotes; 40 µM, 72 h).
For intracellular amastigotes; 4 µM, 72 h: inhibition read 97% and 98%.
promastigotes; 0.33 µM, 72 h — inhibition: 19% and 20% and 24%.

Sample 2 — effect on: cell-free assay; technique: competition with immobilised ligand; concentration: 1 µM
Structure (SMILES): O=C(Nc1cccnn1)N1CC(C/C=C/c2cncc(Oc3ccc(C(F)(F)F)cn3)n2)C1
EPHB4 (Homo sapiens, UniProt P54760) — remaining binding: 100%.
For Ribosomal protein S6 kinase alpha-1, N-terminal kinase domain (RPS6KA1, Homo sapiens, UniProt Q15418): remaining binding read 100%.
It gave 100% for remaining binding (PHKG1 (Homo sapiens, UniProt Q16816)).
CDK8 (Homo sapiens, UniProt P49336) — remaining binding: 100%.
For MAPK15 (Homo sapiens, UniProt Q8TD08): remaining binding read 100%.
For EPHA6 (Homo sapiens, UniProt Q9UF33): remaining binding read 100%.

Sample 3 — effect on: enzyme activity; mode: inhibitor; concentration: 0.5 µM; baseline: control
Target: Mast/stem cell growth factor receptor Kit (KIT, Homo sapiens, UniProt P10721)
Chain of UniProt P10721 (whole entry, looked up): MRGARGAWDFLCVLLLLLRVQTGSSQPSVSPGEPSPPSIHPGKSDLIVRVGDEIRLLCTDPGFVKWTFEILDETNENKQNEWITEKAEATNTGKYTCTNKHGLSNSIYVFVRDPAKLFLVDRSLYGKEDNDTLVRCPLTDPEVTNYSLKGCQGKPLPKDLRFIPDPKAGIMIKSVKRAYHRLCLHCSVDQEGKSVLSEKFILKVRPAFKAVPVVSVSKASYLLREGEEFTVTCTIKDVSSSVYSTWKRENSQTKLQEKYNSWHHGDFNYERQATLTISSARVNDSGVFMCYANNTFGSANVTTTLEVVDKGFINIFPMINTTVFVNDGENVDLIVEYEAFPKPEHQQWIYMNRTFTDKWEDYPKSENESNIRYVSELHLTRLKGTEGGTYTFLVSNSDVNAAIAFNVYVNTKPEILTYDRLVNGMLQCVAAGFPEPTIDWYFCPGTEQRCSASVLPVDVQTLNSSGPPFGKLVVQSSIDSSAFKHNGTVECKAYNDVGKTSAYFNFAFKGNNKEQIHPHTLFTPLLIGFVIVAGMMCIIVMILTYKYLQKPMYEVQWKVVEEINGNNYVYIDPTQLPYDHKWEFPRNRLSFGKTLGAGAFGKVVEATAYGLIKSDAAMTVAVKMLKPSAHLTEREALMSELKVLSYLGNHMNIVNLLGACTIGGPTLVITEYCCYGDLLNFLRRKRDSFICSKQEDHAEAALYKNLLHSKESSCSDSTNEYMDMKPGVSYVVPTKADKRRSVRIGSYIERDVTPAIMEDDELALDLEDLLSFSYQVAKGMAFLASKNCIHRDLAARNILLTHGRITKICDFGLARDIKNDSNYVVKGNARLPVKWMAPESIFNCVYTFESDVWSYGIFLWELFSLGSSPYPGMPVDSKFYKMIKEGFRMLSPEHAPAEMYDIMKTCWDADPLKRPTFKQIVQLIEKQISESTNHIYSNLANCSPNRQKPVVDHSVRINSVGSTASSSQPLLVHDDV
For O=c1c2ccccc2[nH]c(=S)n1CCN1CCC(=C(c2ccc(F)cc2)c2ccc(F)cc2)CC1, the remaining activity was 103%.
The remaining activity of Nc1ncnc2n[nH]c(Nc3ccc(F)cc3)c12 is reported as 93.5%.
The remaining activity of C#Cc1cccc(Nc2ncnc3cc(OCCOC)c(OCCOC)cc23)c1 is reported as 98.1%.
The remaining activity of NCCNc1ncc(C(N)=O)c(Nc2cccc(C(F)(F)F)c2)n1 is reported as 94.7%.
CN(C)c1ccc(C=C2C(=O)Nc3ccccc32)cc1 has a remaining activity of 45.6%.
Nc1[nH]nc2nc3ccccc3nc12 gave a remaining activity of 100%.
For Oc1ccc(-c2nc(-c3ccncc3)c(-c3ccc(F)cc3)[nH]2)cc1, the remaining activity was 97.7%.
O=C1NC(=O)C(c2cn(CCCO)c3ncccc23)=C1c1cnccn1 gave a remaining activity of 93%.
For O=C1NC(=O)C(c2cn(CCCn3ccnc3)c3ccccc23)=C1Nc1ccccc1, the remaining activity was 90.2%.
CC(C)[C@H](CO)Nc1nc(Nc2cc(N)cc(Cl)c2)c2ncn(C(C)C)c2n1 gave a remaining activity of 86.2%.
With N#CC(C#N)=C(N)/C(C#N)=C/c1ccc(O)cc1 the remaining activity was 92.4%.
O=C(Nc1cccc(Nc2cc(Nc3cccc(C(F)(F)F)c3)ncn2)c1)C1CC1 gave a remaining activity of 99.9%.
The remaining activity of Cc1nc(-c2ccccc2)c(-c2ccncc2)o1 is reported as 93.7%.
Cn1sc(=O)n(Cc2ccccc2)c1=O gave a remaining activity of 101%.

Sample 4 — mode: inhibitor; concentration: concentration not given; notes: average; with: without ssDNA
Target: DNA polymerase theta, helicase domain (POLQ, Homo sapiens, UniProt O75417)
Chain of UniProt O75417 (whole entry, looked up): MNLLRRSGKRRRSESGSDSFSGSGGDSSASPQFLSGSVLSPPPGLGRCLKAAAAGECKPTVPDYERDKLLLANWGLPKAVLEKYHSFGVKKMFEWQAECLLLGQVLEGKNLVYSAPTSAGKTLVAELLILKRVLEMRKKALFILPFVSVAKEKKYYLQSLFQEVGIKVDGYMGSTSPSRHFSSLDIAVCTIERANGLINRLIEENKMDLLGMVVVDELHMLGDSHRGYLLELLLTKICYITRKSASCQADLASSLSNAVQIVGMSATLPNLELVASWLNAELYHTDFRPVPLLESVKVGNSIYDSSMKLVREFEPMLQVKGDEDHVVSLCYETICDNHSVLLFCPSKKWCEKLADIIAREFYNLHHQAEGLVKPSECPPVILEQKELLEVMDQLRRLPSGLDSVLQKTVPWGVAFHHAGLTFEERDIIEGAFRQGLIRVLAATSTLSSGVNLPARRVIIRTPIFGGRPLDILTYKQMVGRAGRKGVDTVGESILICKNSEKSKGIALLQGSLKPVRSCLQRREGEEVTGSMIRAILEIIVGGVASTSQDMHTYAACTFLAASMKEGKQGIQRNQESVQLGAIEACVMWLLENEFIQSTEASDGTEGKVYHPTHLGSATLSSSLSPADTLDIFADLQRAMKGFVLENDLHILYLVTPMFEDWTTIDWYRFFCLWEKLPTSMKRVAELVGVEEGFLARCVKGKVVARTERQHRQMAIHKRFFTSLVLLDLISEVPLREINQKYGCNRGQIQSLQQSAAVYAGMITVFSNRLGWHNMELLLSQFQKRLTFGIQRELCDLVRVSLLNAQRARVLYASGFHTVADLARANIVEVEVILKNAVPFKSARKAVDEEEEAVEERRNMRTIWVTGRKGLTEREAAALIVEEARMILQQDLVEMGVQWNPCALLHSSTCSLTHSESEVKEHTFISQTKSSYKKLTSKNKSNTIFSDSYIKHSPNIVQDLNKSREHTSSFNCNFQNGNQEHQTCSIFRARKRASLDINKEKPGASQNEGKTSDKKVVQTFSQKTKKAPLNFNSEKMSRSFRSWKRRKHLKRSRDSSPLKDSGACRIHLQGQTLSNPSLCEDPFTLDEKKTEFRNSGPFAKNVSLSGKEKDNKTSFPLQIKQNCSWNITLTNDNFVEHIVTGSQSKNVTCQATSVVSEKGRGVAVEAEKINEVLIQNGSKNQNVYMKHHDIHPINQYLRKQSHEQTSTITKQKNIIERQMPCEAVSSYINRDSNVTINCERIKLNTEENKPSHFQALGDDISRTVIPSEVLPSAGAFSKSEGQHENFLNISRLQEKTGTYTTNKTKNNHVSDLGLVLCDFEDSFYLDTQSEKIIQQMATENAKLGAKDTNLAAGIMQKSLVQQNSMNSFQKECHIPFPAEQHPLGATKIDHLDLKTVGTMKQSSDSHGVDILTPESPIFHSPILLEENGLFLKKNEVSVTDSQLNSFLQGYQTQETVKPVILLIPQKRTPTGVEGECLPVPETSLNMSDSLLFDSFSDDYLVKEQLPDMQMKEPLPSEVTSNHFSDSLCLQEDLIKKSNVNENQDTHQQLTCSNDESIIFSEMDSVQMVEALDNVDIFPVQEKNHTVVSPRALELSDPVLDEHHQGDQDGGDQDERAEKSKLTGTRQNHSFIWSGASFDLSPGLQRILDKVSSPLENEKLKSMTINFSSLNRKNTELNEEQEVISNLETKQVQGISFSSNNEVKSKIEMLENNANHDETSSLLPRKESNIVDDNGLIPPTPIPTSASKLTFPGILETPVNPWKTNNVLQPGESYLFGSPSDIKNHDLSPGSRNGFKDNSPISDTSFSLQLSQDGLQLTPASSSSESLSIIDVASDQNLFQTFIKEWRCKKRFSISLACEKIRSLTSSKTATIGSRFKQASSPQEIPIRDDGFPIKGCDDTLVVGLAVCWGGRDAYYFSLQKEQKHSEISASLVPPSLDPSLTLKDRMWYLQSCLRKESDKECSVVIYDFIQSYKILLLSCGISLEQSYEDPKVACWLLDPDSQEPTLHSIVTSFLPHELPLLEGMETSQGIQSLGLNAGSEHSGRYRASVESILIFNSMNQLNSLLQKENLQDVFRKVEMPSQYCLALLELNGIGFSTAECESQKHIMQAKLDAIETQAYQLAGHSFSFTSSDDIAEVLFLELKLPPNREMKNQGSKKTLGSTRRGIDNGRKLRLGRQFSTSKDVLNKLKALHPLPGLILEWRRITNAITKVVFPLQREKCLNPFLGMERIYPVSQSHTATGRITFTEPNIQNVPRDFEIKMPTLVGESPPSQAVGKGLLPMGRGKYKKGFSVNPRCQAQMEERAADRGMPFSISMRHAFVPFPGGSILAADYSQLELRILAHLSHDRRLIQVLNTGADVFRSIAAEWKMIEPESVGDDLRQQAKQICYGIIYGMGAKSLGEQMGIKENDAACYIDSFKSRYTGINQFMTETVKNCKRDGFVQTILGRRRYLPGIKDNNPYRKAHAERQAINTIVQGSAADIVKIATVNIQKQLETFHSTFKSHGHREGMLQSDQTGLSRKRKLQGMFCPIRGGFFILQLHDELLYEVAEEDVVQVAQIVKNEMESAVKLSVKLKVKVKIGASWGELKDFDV
With CCc1ccc(/C=C2/SC(=S)NC2=O)cc1 the remaining activity was 45.8%.
The remaining activity of O=C(CSc1ncc(S(=O)(=O)c2ccc(Br)cc2)c(=O)[nH]1)NCc1ccc(Cl)cc1 is reported as 62.2%.
For Cc1ccc(C(=O)c2cc(O)c(O)c([N+](=O)[O-])c2)cc1, the remaining activity was 46.6%.
The remaining activity of O=C(Nc1ccccc1F)c1ccc2c(Cl)c3c(nc2c1)CCC3 is reported as 82.1%.
